Assay results pooled from the literature.
Parts stem from different laboratories: compare values within a part only. Substitutions count along the parent as printed.

Set 1 — target: CCNB1, cyclin fold, Cln2 fusion (human); technique: yeast growth competition, sequencing; sample: yeast; setting: weak parent motif; reference: not given; direction: higher = stronger binding; endpoint: normalised enrichment score
Starting sequence: RBL1 docking peptide (human); GSAKRRLFGEDPP
GSAKRRLFGEDPQ [P13Q]: 0.208
GSAKRRGFGEDPP [L7G]: 0.457
GSAKRTLFGEDPP [R6T]: 0.00671
GMAKRRLFGEDPP [S2M]: 0.58
GSAKRRLFFEDPP [G9F]: 1.97
GSAHRRLFGEDPP [K4H]: 0.748
GSAKRRPFGEDPP [L7P]: 0.677
GSAKRRLFGEDPF [P13F]: 0.731
GSAKRRLFGEDPG [P13G]: -0.141
GSAKRRLFGEDPK [P13K]: -0.26
GSAKRRLFGCDPP [E10C]: 0.418
GSAKRRLNGEDPP [F8N]: -0.53
GSAKRRLKGEDPP [F8K]: 0.566
GSAKRRLFGEDPY [P13Y]: 0.0591

Set 2 — technique: RNA Bind-n-Seq; molecule type: RNA; sample: in vitro; tested at: 1 µM; setting: whole 134-nt RNA, ends assumed; added: 150 mM KCl; reference: input library; direction: higher = stronger binding; endpoint: log2 enrichment
Target: Ras GTPase-activating protein-binding protein 1, RRM domain (G3BP1, Homo sapiens, UniProt Q13283)
UniProt Q13283, sequence (whole entry, looked up): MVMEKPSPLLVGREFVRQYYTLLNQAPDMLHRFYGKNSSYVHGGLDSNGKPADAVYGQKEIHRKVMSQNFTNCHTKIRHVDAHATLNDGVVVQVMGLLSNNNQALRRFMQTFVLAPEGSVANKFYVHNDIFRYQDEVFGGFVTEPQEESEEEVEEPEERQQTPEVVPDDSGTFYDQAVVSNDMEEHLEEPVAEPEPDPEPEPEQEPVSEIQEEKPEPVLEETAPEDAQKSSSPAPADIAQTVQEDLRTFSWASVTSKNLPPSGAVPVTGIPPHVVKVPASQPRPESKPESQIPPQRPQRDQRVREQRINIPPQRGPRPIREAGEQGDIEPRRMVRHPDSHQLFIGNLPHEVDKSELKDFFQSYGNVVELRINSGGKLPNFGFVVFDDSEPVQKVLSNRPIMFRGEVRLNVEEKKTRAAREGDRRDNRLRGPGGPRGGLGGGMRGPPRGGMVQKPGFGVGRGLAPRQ
Constant ends, left off below: GGGAGUUCUACAGUCCGACGAUC … UGGAAUUCUCGGGUGUCAAGG
GCAGGAAGUAAAAACAAAUGGAAAUGCUUCGGAUAGUGGCAGGGGUGGGGGUUGCUAAGGAACGGGUGGGAUGGGAGUGGGUAAAGAGUU: 1.03
CUCAAGUCCUGUGCUACACAUCGUAUGUACCGAAUCGGGAGGGUGGGUUUGGGAAAGUAUUAUGUUACGCCGUUCGGAUCUGCACUUCCA: 0.772
GUCCUGUGCUACACAUCGUAUGUACCGAAUCGGGGCCCCGGGGCCCCGGGGCCCCGGGAAAGUAUUAUGUUACGCCGUUCGGAUCUGCAC: 0.141
AAGUCCUGUGCUACACAUCGUAUGUACCGAAUCGGGUUUUUGGGUUUUUGGGUGGGAAAGUAUUAUGUUACGCCGUUCGGAUCUGCACUU: 0.282
CACAGACAACACGCACCCACACAGCCACAGAGGGAAGGGGUUGGGAUGGGGACAGGGUGCACAGCAGGGCGGGGUAGGACCCCAGCCCCU: 0.123
AAGUCCUGUGCUACACAUCGUAUGUACCGAAUCGGAAAGGAAAAAGGAAAAAAAGGAAAGUAUUAUGUUACGCCGUUCGGAUCUGCACUU: -0.0674
UCCUGUGCUACACAUCGUAUGUACCGAAUCGGGGUUUUUGGGUUUUUGGGGUUUUUGGGAAAGUAUUAUGUUACGCCGUUCGGAUCUGCA: -0.0123
UCCUGUGCUACACAUCGUAUGUACCGAAUCGGGUUUUUUGGGUUUUUUGGGGUUUUUUGGAAAGUAUUAUGUUACGCCGUUCGGAUCUGC: -0.0521
GUCCUGUGCUACACAUCGUAUGUACCGAAUCGGGAAAAAGGGUUUGGGUUUUUUUGGGAAAGUAUUAUGUUACGCCGUUCGGAUCUGCAC: 0.0643

Set 3 — technique: protein binding microarray; molecule type: double-stranded DNA, one strand shown; sample: in vitro; tested at: not given; reference: not given; direction: higher = stronger binding; endpoint: E-score
Target: Histone acetyltransferase KAT6A, winged helix 2, GST fusion (KAT6A, Homo sapiens, UniProt Q92794, residues 85-181)
Setting: 8-mer, flanks averaged, mean of 2 arrays, mostly near background
Target sequence (chain): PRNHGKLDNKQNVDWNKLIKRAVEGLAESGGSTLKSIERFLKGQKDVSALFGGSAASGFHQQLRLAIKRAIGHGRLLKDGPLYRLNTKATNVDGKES
GGAGAAGA: -0.0422
ACCTACGA: -0.0246
CGTAATAG: -0.163
AGCACCGC: 0.0757
CCTCATCA: -0.106
GTAACTCA: -0.0294
GTGCCTTA: 0.0565
ACAGGAAT: -0.0653
TATGAAAA: -0.0205
TAAGGACA: 0.0392
AACAAAGT: -0.00485
CGGTGGTA: 0.0625
AGGCATTC: -0.0231
CTGTGCTC: 0.189
TCTATAGA: -0.154
AACCTCCT: -0.206
GATAGCAC: 0.00442
ACTTAAGA: -0.013

Set 4 — technique: protein-binding microarray; molecule type: double-stranded DNA, one strand shown; sample: in vitro; tested at: 2200 nM top; setting: 60-bp whole probe; added: salmon DNA 0.4 mg/ml; reference: random background probes; direction: higher = stronger binding; endpoint: fitted relative affinity
Target: Interferon regulatory factor 7, full length, phosphomimetic (IRF7, Homo sapiens, UniProt Q92985, residues 1-503, S471D/S472D/S475D/S476D/S477D/S483D/S484D/S487D)
UniProt Q92985, sequence (whole entry, unmodified, looked up): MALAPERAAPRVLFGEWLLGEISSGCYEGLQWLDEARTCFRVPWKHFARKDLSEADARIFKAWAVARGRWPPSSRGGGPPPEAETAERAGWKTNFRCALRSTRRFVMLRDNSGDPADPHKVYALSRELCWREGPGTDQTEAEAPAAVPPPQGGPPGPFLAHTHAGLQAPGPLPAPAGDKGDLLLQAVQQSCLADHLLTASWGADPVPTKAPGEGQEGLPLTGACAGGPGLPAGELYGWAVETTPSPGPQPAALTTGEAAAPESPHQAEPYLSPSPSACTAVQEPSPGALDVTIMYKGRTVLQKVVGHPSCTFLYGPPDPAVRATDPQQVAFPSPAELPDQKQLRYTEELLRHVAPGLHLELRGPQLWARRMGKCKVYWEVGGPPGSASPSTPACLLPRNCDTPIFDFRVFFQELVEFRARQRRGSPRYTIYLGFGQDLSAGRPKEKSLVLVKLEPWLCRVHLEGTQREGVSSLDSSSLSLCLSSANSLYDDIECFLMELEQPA
Constant ends, left off below: GCCTAGCAC … GTGCTAGGTCTTGATTCGCTTGACGCTGCTG
TTAGGACTGCTACTGCTTTG: -0.0764 z-score
TTAGATCTCAGACTGTATTA: -0.0239 z-score
ACCATTTTGGTTTTCTCTAT: 3.09 z-score
GACGAACTGAGTCTCAAGAC: -0.218 z-score
TTAGGCATCCTTCTCCTTTA: 0.418 z-score
TTAGATATCAGCATCGATTA: -0.298 z-score
GACGATTTCAGCCTCGAGAC: 0.645 z-score
TTAGATATCAGACTGGACTA: -0.332 z-score
CTGGACCCACTTCCAAATGG: -0.204 z-score

Set 5 — technique: competition protein-binding microarray; molecule type: double-stranded DNA, one strand shown; sample: in vitro; tested at: 2 µM; added: Pho4 competitor, 0.05 µM; direction: higher = stronger binding; endpoint: fluorescence intensity; constant ends, left off below: … GTCTTGATTCGCTTGACGCTGCTG
Target: Centromere-binding protein 1, full length, His-tagged (CBF1, Saccharomyces cerevisiae, UniProt P17106, residues 1-351)
UniProt P17106, sequence (whole entry, looked up): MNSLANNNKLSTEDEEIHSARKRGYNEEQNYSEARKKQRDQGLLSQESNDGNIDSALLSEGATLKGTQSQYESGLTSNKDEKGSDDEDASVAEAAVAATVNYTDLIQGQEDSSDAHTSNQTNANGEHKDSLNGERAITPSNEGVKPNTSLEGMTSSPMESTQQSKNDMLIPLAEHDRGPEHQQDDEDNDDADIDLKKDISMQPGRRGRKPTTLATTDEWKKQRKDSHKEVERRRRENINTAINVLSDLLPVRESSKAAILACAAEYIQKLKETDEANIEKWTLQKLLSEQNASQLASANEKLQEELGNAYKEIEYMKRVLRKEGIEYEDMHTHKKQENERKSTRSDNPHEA
Setting: whole 60-bp probe, lowest competitor level
CGGGGTTAAGTTTGTGAGGTGGGTGGCTTGCAGCAG: 65.2 a.u.
GCAATTCCTTTCTGAAACGTGAAAAGATACCGTCAA: 103 a.u.
GCTGGAATGCCGCGACAGATGTAACAAGAATGTGTT: 67.2 a.u.
TGAAAAAACCCTTTTCGCGTGCCAGTGATGCTTCCA: 69.5 a.u.
CGGCAAATCCTCTTCCACATGTGTGTCTTTGAATCA: 90.9 a.u.
ATTGTGGAATTGGCAGGCGTGACAAACAAATCCGAT: 285 a.u.
GACAAAAGAAGGTTAAACGTGGCAATGACAAGAGCC: 92.2 a.u.
AATAAAGAGAAAAACCATGTGCGGTAGCAGCCTGCC: 71 a.u.
GTCTTGTCTCATTGGAAAGTGGGTGTCCCCACTTCA: 85.8 a.u.
CTTCTGTAAATTTGTTTTGTGGGTGGACGCGCCCCG: 78.9 a.u.
ATTGAGAAGTATAACGACACCCAGTGGACCTCGGGT: 57 a.u.
CATACCCAACCTTGCTGCGTGGGTGAAGATATTTGT: 67.2 a.u.
CTTTACCATTCCCATCACGGGAAGAGTGTGTTGGCA: 178 a.u.

Set 6 — technique: RNA Bind-n-Seq; molecule type: RNA; sample: in vitro; tested at: 365 nM; reference: no-protein control; direction: higher = stronger binding; endpoint: RBNS enrichment (R)
Target: RNA binding protein fox-1 homolog 2, RRM domain, GST-SBP tag (RBFOX2, Homo sapiens, UniProt O43251-10, residues 100-194)
Setting: natural RNA segment, single round, ends assumed
Constant ends, left off below: GGGAGUUCUACAGUCCGACGAUC … UGGAAUUCUCGGGUGCCAA
Residues (chain): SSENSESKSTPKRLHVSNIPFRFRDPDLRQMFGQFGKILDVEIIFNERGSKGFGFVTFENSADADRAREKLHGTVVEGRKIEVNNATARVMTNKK
UAUGUAUCUAGCUUGUGCAAAACCCUUAAGUAUGAGGGAUAGGACCCCCACCCAUGGGUUUACAUAUAUUUGGGGCUCAUUAUUUUUUAGCAUUUUCUUUAUCUCCGGAU: 1.2
GUAUACUGUGUUGAAGCCAGACAGAAAAGUAAUGGGGCCACUUCUGAAACCUCUCAGCUGUUGAUCUCACAGCAGCUAAAGGGUUGUGCCAAACAUUUUAUUAAGAAAGU: 0.594
UCCCUCCCCACCACCAUUCCUUGCUUCCUGCCCAGCCCGCUUCACUUCUCCCGGGACCAUCCUGAUAUGGCGGUUCAUUCAGAAUGACCUGGAGGGGAAGGUGGGUGGGC: 0.435
UAUGCACCUUAUCUGCCUGUUGUGGGUUUCUUAAACUUGCACUUCCUACCCACCCAAAGAUAGAUAUCCUUUAAAGAAAAUAAAGGCAGAGAAUUAAAACUGGGGAGCCA: 1.34
AGUAAUACAUUAUAGUGAAUUCAUGAUCAAGGUUUCCUUAAAUUUAGCAUUGCAUUUCAGUACUGACUGUGUAAGCUAAAUUGCUGAUCCAAAAUAAAAACCCAGACUAG: 0.295
GGCCAGCCUGGUCUUGAACUCUUGAACUCCUGACCUCAGGUAAUCCACCCACCUCAGACUCCCAAAGUGCUGGGAUUACAGGCGUGAGCCACCAUACCCGGCCAAAAAUU: 0.175
GAUGGGGCCCUUCCUCCGGGUGACCCCACAGGGCCUUUCCAAGCCCCCAUUUGAGCUGCUCCUUCCUGUGUGUGCUCUGGGCCCUGCCUCGGCCUCCUGCGCCAAUACUG: 0.418

Set 7 — technique: RNA Bind-n-Seq; molecule type: RNA; sample: in vitro; tested at: not given; reference: input RNA pool; direction: higher = stronger binding; endpoint: bound/input enrichment
Target: RING finger protein unkempt homolog, zinc fingers 1-6, GST-SBP tag (UNK, Homo sapiens, UniProt Q9C0B0, residues 30-357)
UniProt Q9C0B0, sequence (30-357, looked up): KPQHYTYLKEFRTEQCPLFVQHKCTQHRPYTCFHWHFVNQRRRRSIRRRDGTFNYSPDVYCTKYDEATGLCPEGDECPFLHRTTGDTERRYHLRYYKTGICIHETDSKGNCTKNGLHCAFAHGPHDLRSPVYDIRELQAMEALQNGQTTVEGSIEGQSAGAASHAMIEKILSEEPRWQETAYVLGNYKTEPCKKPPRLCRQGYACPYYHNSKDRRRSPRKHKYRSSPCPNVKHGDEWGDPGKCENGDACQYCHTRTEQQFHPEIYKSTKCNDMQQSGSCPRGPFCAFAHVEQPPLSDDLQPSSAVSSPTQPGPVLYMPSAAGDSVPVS
Setting: RNA with constant flanks, human-mouse chimeric sites, ends assumed
Constant ends, left off below: GGGAGUUCUACAGUCCGACGAUC … CAACAGAGGAUUGAGCAUCA
UCCCAAAUCCAGCAGCUAGAAGGAGCCAAUUGUUUGUCACUCCACACACAGGGAAGGCGAUAACAUUGUACAUUGGUUUACAUUUUUUCCCCCUGUGUUUUCUAGGGGAGGUCAUAGUGC: 0.606 ratio
AACUUCGUGCAUCGGUUUCCCUUUGUAGCUGUUUCAAUUGGCUUCCUUGUGAAUAAAAAGAUAGAAUUUGGAGUUGUGUACAGCUGUGUGGAAGAUAAGAUGUACACCGGCAGGAAAGGG: 1.34 ratio
GCCACCAGAUCCCAGAAACAUGACCCUUGCUGCCUACAAGGAGAAGAUGAAGGAGCUCCCGCUGGUGUCUCUGUUCUGCUCCUGCUUCCUGGCCGAUCCCCUGAAUAAGUCGUCCUACAA: 0.186 ratio
AAAGGCAAAAAGGGCAGCUGUGUCAUUUCAUAAGUAACUCUGGGGGAGGGAAAUUCUGUUCUUUUGUUUUUAGUUUUCCCAAAUGAAGCCAAAGUGUGUGUUGAAGAACUGAGAAAAAAU: 0.563 ratio
AAACAUCUGUCUUUAAGCAUUCCAAGCAAUGCUUGGGGGGUGAUCAUUGUUGCCCAUGUGCCUUCUGACUGAGCUUUAAUGCUGUUCCAUGUUACAUCUUUCCUUCACUCCAGAAUUGUU: 0.16 ratio
AGAUUCCCCCUCCUGAGACCUCCUCCGAAAUUGGCAUCUCUUAUAGAUGCCUCAUCCCCUGUUAGCGUUUUAGUUUGGACCACCCAGCCUUGGACAAUUCCCGCCAACCAGGCAAUUUGC: 1.33 ratio
GGACAUCUGUCAAAUUGUUAUGUUCCUGUGAAACAAGUGAACACUCUUCAUAUACUAAUCUGCUUGUACAUUUAACUGAUAGAGAAAUGUAAAUAUGUUAAUCCAAGCAAUGUGUCACUU: 0.303 ratio

Set 8 — technique: universal PBM; molecule type: double-stranded DNA, one strand shown; sample: in vitro; tested at: not given; direction: higher = stronger binding; endpoint: E-score
Target: Sal-like protein 4, full length isoform B (SALL4, Homo sapiens, UniProt Q9UJQ4-2, residues 1-616)
Setting: 8-mer, flanks averaged, mean of replicates
Target sequence (chain): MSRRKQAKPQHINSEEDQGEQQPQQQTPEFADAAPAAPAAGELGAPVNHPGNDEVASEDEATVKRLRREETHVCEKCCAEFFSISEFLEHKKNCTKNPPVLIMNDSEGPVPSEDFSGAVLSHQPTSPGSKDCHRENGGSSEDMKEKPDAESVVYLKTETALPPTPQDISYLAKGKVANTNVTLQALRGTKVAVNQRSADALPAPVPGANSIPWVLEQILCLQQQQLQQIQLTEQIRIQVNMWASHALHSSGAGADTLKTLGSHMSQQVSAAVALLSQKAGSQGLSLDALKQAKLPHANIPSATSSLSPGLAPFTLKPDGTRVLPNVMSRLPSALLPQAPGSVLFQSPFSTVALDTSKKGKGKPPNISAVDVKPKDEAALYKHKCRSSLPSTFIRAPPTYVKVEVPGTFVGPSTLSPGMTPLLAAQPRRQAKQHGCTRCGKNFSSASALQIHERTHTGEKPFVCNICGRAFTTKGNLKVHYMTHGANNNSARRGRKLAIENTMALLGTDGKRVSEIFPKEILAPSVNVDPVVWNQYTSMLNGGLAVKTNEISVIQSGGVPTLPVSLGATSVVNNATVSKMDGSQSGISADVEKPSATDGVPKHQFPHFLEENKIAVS
CCAACGAG: -0.107
ATTAAACG: 0.289
AACAACCG: 0.014
CGCTCCTA: -0.0453
GAGGCCGA: -0.289
ACCCCTTA: -0.0112
CCCACTCG: -0.228
AGGAACAG: -0.114
CGCGTAAA: 0.181
AATAGCCT: 0.0329
GGAAAGCC: -0.226
GACAATGC: 0.0825
TGAGGGCA: -0.0939
GACGATCC: -0.0851
ACTGGCGC: -0.224
GTGCCTGA: -0.16

Excerpt of the above (set 3):
AGCACCGC: 0.0757
CCTCATCA: -0.106
GTAACTCA: -0.0294
GTGCCTTA: 0.0565
ACAGGAAT: -0.0653
TATGAAAA: -0.0205
TAAGGACA: 0.0392
AACAAAGT: -0.00485
CGGTGGTA: 0.0625
AGGCATTC: -0.0231
CTGTGCTC: 0.189
TCTATAGA: -0.154
